{"data": "Published values gathered from unrelated publications", "note": "Compare with care: the assays were run in different laboratories. “And” joins repeats or separate records; there may be more than shown. ± gives the spread as reported."}
{"SMILES": "NCC(=O)Nc1cncc(-c2nn3c(=O)cc(N4CCNCC4)nc3s2)c1", "test": "ADP-induced platelet aggregation, light transmission aggregometry", "test system": "human stable CAD patients on aspirin, platelets ex vivo", "conditions": "0.075 mg/kg, 360 min post dose, together with: 20 µM ADP", "scale": "relative to: placebo difference", "quantity": "inhibition of platelet aggregation", "value": "7.47%"}
{"SMILES": "C=CCn1c(=O)c2cnc(Nc3ccc(N4CCN(C)CC4)cc3)nc2n1-c1ccc2c(n1)[C@@](O)(CC)CC2", "test system": "BALB/c nude mouse, BxPC-3 xenograft", "conditions": "oral, 60 mg/kg, 1 d on 6 d off ×4, day 28", "scale": "relative to: vehicle", "quantity": "tumour volume difference", "value": "372 ± 13.3 mm3"}
{"SMILES": "COc1cc(F)c([C@@H]2CNC(=O)[C@H]2NC(=O)Nc2ccccc2)c(F)c1", "test": "LV haemodynamics", "test system": "rat, myocardial ischaemia-reperfusion", "conditions": "1 mg/kg, 1008 h, 6 weeks post-injury", "quantity": "left ventricular end-diastolic pressure", "value": "5 ± 6 mmHg"}
{"SMILES": "c1ccc(-c2n[nH]cc2-c2ccnc3ccccc23)nc1", "test": "kinase binding, competitor, MIB/MS competition, refers to: CAK1", "test system": "Candida albicans cell lysate", "conditions": "100 nM", "scale": "relative to: DMSO", "quantity": "log2 fold change", "value": 1.3}
{"SMILES": "Cc1c(NC(=O)c2cccnc2)c(=O)n(-c2ccccc2)n1C", "test": "histology", "test system": "Dmd C3333Y mice, tibialis anterior", "conditions": "dose not given", "quantity": "centrally nucleated fibres", "value": "62% and 64% and 67% and 56%"}
{"SMILES": "C[C@@H](O)CCOC(=O)C[C@@H](C)O", "test": "refers to: C20:4 acylcarnitine", "test system": "human, plasma", "conditions": "60 min, log2-transformed values", "quantity": "metabolite level", "value": "-7.4 ± 0.69 µmol/L"}
{"SMILES": "CN(CCOc1ccc(CC2SC(=O)NC2=O)cc1)c1ccccn1 (racemic)", "test": "indirect calorimetry", "test system": "mice, diet-induced obese", "conditions": "dose not given, average over 72 h, end of treatment", "quantity": "VCO2", "value": "70 ± 6.83 mL/min/kg"}
{"SMILES": "Cc1n[nH]c2ccc(-c3cc(OC[C@@H](N)Cc4ccccc4)cnc3-c3ccoc3)cc12", "test": "kinase binding, competitor, MIB/MS competition, refers to: CKA1", "test system": "Candida albicans cell lysate", "conditions": "10 µM", "scale": "relative to: DMSO", "quantity": "log2 fold change", "value": -2.47}
{"SMILES": "COc1ccc(-c2cncc(N[C@@H](C)c3cccc(NC(=O)c4cncc(C)c4)c3)n2)cc1OC", "test": "refers to: rno-miR-362-3p", "test system": "rat SU5416/hypoxia model, lung", "conditions": "dose not given", "scale": "relative to: SU5416/hypoxia vehicle", "quantity": "fold change", "value": 0.619}
{"SMILES": "CCOC(=O)[C@H](CCc1ccccc1)N[C@@H](C)C(=O)N1CCC[C@H]1C(=O)O", "test system": "renal hypertensive rat", "conditions": "sc infusion, 40 mg/kg/day", "scale": "relative to: vehicle", "quantity": "left ventricular end-diastolic volume", "value": "increased"}
{"SMILES": "O=C(O)c1cc(-c2ccc(-c3cc[nH]n3)cc2)c2ccc(-c3ccc(C(F)(F)F)cc3)cc2c1", "test": "von Frey", "test system": "ICR mouse, male, CCI model", "conditions": "dose not given, contralateral paw", "quantity": "paw withdrawal threshold", "value": "no effect"}
{"SMILES": "CC#CC(=O)N[C@H]1CCCN(c2c(F)cc(C(N)=O)c3[nH]c(C)c(C)c23)C1", "test": "refers to: IgG", "test system": "human", "conditions": "10 mg once daily, day 21", "scale": "relative to: baseline", "quantity": "serum immunoglobulin", "value": "-4.2 % change"}
{"SMILES": "Cc1noc(NS(=O)(=O)c2ccc(N=NN(O)c3ccccc3)cc2)c1C", "test": "carrageenan-induced paw edema", "test system": "Wistar rat", "conditions": "oral, 100 mg/kg, 4 h after carrageenan, together with: carrageenan 1% subplantar", "scale": "higher = more edema", "quantity": "paw edema volume", "value": "4.41 ± 0.61 a.u."}
{"SMILES": "N#Cc1ccc2c(c1)[C@H]1CCCN(C(=O)c3ccc4[nH]cnc4c3)[C@H]1C2", "test system": "human, urine", "conditions": "160 mg, 336 h, day 14 over day -1", "scale": "relative to: placebo and baseline", "quantity": "total urinary corticosteroids", "value": "121 % change"}
{"SMILES": "COc1ncc(-c2nc3c(n2C(C)C)[C@H](c2ccc(Cl)cc2)N(c2cc(Cl)cn(C)c2=O)C3=O)c(OC)n1", "test": "antileukemic activity, refers to: treatment failure, indeterminate cause", "test system": "human, acute myeloid leukaemia", "conditions": "150 mg, high-dose, other doses", "quantity": "best overall response", "value": "16.7%"}
{"SMILES": "O=C1Nc2cc3[nH]nc(-c4ccncc4)c3cc2CN1Cc1ccccc1", "test": "RECIST v1.1", "test system": "human, relapsed or refractory advanced solid tumours", "conditions": "intravenous, 1.8 mg/kg, pooled schedules", "quantity": "progressive disease, best response", "value": "100%"}
{"SMILES": "CNCc1cc(-c2ccccc2F)n(S(=O)(=O)c2cccnc2)c1", "test system": "rat, aspirin-induced ulcer", "conditions": "oral, 2 mg/kg, 4 h, together with: aspirin 150 mg/kg", "quantity": "gastric lesion area", "value": "37.9 ± 8.5 mm"}
{"SMILES": "Cc1cccc(N(O)N=Nc2ccc(S(=O)(=O)Nc3onc(C)c3C)cc2)c1", "test": "carrageenan-induced paw edema", "test system": "Wistar rat", "conditions": "oral, 100 mg/kg, 0 h (baseline), together with: carrageenan 1% subplantar", "scale": "higher = more edema", "quantity": "paw edema volume", "value": "3.31 ± 0.23 a.u."}
{"SMILES": "NC(=O)c1cnc2[nH]ccc2c1N[C@@H]1[C@@H]2CC3C[C@H]1C[C@@](O)(C3)C2", "test": "flow cytometry, refers to: CD8+ effector memory T cells", "test system": "Japanese healthy subjects, peripheral blood", "conditions": "oral, 30 mg twice daily, day 4", "quantity": "change from baseline", "value": "0.13%"}
{"SMILES": "C=Cc1c(C)c2cc3nc(c(CC(=O)O)c4[nH]c(cc5nc(cc1[nH]2)C(C)=C5CC)c(C)c4C(=O)O)[C@@H](CCC(=O)O)[C@@H]3C", "test": "flow cytometry", "test system": "mice, 4T1 tumour-bearing", "conditions": "dose not given, 1 h", "quantity": "CD4 T cells", "value": "1.97%"}
{"SMILES": "CN(O)N=Nc1ccc(S(=O)(=O)Nc2nccs2)cc1", "test": "carrageenan-induced paw edema", "test system": "Wistar rat", "conditions": "oral, 100 mg/kg, 2 h after carrageenan, together with: carrageenan 1% subplantar", "scale": "higher = more edema", "quantity": "paw edema volume", "value": "5.41 ± 0.91 a.u."}
{"SMILES": "OC(CCN1CCCCC1)(c1ccccc1)C1CC2C=CC1C2 (stereo not shown)", "test": "resting-state EEG", "test system": "healthy elderly humans", "conditions": "oral, 4 mg, eyes closed, LS mean", "scale": "relative to: baseline", "quantity": "change, Gamma EEG power, in O2-Pz", "value": "-0.7%"}
{"SMILES": "COc1ccccc1[C@H](Cn1c(=O)n(C(C)(C)C(=O)O)c(=O)c2c(C)c(-c3ncco3)sc21)OC1CCOCC1", "test system": "human", "conditions": "20 mg, post-treatment", "quantity": "serum adiponectin", "value": "5.69 ± 3.13 µg/mL"}
{"SMILES": "Cc1cc(F)cc2c(CCC(=O)N[C@@H]3C(=O)NC[C@H]3O)c(-c3ccc(F)cc3)[nH]c12", "test system": "mice, APOL1 G2, single copy", "conditions": "day 0, before treatment, together with: IFNγ plasmid injection", "quantity": "UACR", "value": "19.5 µg/mg and 9.55 µg/mg and 23.9 µg/mg and 19.1 µg/mg and 32.4 µg/mg"}
{"SMILES": "O=C(O)CNC(=O)Cc1ccccc1", "test system": "ventricular cardiomyocytes, C57BL/6 mouse", "conditions": "dose not given, 0.564 s", "quantity": "sarcomere length", "value": "1.63 µm"}
{"SMILES": "Cc1ccc(N(O)N=Nc2ccc(S(=O)(=O)Nc3onc(C)c3C)cc2)cc1", "test": "carrageenan-induced paw edema", "test system": "Wistar rat", "conditions": "oral, 100 mg/kg, 1 h after carrageenan, together with: carrageenan 1% subplantar", "scale": "higher = more edema", "quantity": "paw edema volume", "value": "6.14 ± 0.84 a.u."}
{"SMILES": "C[C@H](Oc1ccc(Br)cc1-c1ccon1)C(=O)O", "test": "first response latency", "test system": "human, tibialis anterior muscle", "conditions": "100 mg, 15 Hz, single ascending dose", "quantity": "difference from placebo", "value": "-0.335%"}
{"SMILES": "Cc1cc(NS(=O)(=O)c2ccc(N=NN(C)O)cc2)no1", "test": "carrageenan-induced paw edema", "test system": "Wistar rat", "conditions": "oral, 100 mg/kg, 2 h after carrageenan, together with: carrageenan 1% subplantar", "scale": "higher = more edema", "quantity": "paw edema volume", "value": "5.1 ± 0.41 a.u."}
{"SMILES": "N#Cc1ccc2c(-c3ccncc3)c(-c3ccc(F)cc3)nn2c1", "test": "kinase binding, competitor, MIB/MS competition, refers to: CDC7", "test system": "Candida albicans cell lysate", "conditions": "100 nM", "scale": "relative to: DMSO", "quantity": "log2 fold change", "value": 0.00305}
{"SMILES": "C[C@H]1C[C@H]2CSC(N)=N[C@@]2(c2nc(NC(=O)c3ccc(OC(F)F)cn3)cs2)CO1", "test": "refers to: Aβx-40", "test system": "healthy adults, plasma", "conditions": "40 mg single dose, 24 h post-dose", "scale": "relative to: placebo", "quantity": "percent change from baseline", "value": "-46.6%"}
{"SMILES": "CN(C)C(=O)Oc1cccc([N+](C)(C)C)c1", "test": "neuromuscular block reversal", "test system": "rat", "conditions": "dose not given, 15.5 (unit not given), together with: cisatracurium", "scale": "relative to: T1 twitch", "quantity": "train-of-four ratio", "value": 97}
{"SMILES": "COc1cc(Nc2ncc3c(n2)-c2ccc(Cl)cc2C(c2c(F)cccc2OC)=NC3)ccc1C(=O)O", "test system": "mouse, NB-SD neuroblastoma xenograft", "conditions": "oral, 5.2 mg/kg, day 7", "scale": "relative to: vehicle", "quantity": "relative tumour volume T/C", "value": 1.88}
{"SMILES": "CC(C)C[C@H](NC(=O)[C@@H](Cc1c[nH]c2ccccc12)NC(=O)[C@H](Cc1ccc(O)cc1)NC(=O)[C@H](CO)NC(=O)[C@H](Cc1c[nH]c2ccccc12)NC(=O)[C@H](Cc1c[nH]cn1)NC(=O)[C@@H]1CCC(=O)N1)C(=O)N[C@@H](CCCNC(=N)N)C(=O)N1CCC[C@H]1C(=O)NCC(N)=O", "test": "Tanner staging", "test system": "Chinese boys, central precocious puberty", "conditions": "intramuscular, 22.5 mg day 1, month 6, month 6", "scale": "relative to: baseline", "quantity": "stable pubic hair stage", "value": "100%"}
{"SMILES": "CC(C)NCC(O)c1ccc(O)c(O)c1 (stereo not shown)", "test system": "ventricular cardiomyocytes, C57BL/6 mouse", "conditions": "dose not given, 0.804 s", "quantity": "sarcomere length", "value": "1.62 µm"}
{"SMILES": "COc1nc(NCc2cn(-c3ccc(C(=O)Nc4ccc(C)cc4)cc3)nn2)nc(OC)n1", "test": "cell viability, MTT", "test system": "normal colonocytes, rat", "conditions": "72 h", "quantity": "IC50", "value": "143 ± 2.97 nM"}
{"SMILES": "CCCCCCCCCCCCCCCC(=O)NCCOC(=O)C[C@@H](CN)CC(C)C", "test": "mechanical withdrawal threshold", "test system": "mouse carrageenan inflammatory pain", "conditions": "oral, dose not given", "quantity": "time to peak efficacy", "value": "180 min"}
{"SMILES": "CCCN(O)N=Nc1ccc(S(=O)(=O)Nc2nccs2)cc1", "test": "carrageenan-induced paw edema", "test system": "Wistar rat", "conditions": "oral, 100 mg/kg, 1 h after carrageenan, together with: carrageenan 1% subplantar", "scale": "higher = more edema", "quantity": "paw edema volume", "value": "6.39 ± 1.12 a.u."}
{"SMILES": "CN(C)C(=O)c1cc2cnc(Nc3ccc(N4CCNCC4)cn3)nc2n1C1CCCC1", "test": "RNA-seq GSEA, refers to: HALLMARK_MYOGENESIS", "test system": "MB002 tumour", "conditions": "concentration not given, in vivo", "scale": "relative to: vehicle, direction not given", "quantity": "GSEA enrichment score", "value": -0.491}
{"SMILES": "N#Cc1ccc2c(c1)[C@H]1CCCN(C(=O)c3ccc4[nH]cnc4c3)[C@H]1C2", "test system": "human clinical trial, female", "conditions": "oral, 240 mg once daily", "quantity": "androstenedione change from baseline", "value": "2.08 nmol/L"}
{"SMILES": "CC(=O)N(C)[C@H]1CCN(C(=O)c2cnc3c(c2)C[C@](C)(c2ccc(F)cc2)N3)C1", "test": "vanin activity, refers to: pantothenic acid", "test system": "humans, whole blood ex vivo", "conditions": "dose not given, after dosing", "quantity": "time to maximal inhibition", "value": "~1 h"}
{"note": "Repeated from above:"}
{"SMILES": "N#Cc1ccc2c(-c3ccncc3)c(-c3ccc(F)cc3)nn2c1", "test": "kinase binding, competitor, MIB/MS competition, refers to: CDC7", "test system": "Candida albicans cell lysate", "conditions": "100 nM", "scale": "relative to: DMSO", "quantity": "log2 fold change", "value": 0.00305}
{"SMILES": "COc1ncc(-c2nc3c(n2C(C)C)[C@H](c2ccc(Cl)cc2)N(c2cc(Cl)cn(C)c2=O)C3=O)c(OC)n1", "test": "antileukemic activity, refers to: treatment failure, indeterminate cause", "test system": "human, acute myeloid leukaemia", "conditions": "150 mg, high-dose, other doses", "quantity": "best overall response", "value": "16.7%"}
